{"data": "Assay results collected from several papers", "method": "steady-state kinetics", "B1": "Paox H64A (Mus musculus, UniProt Q8C0L6); chain MAFPGPRVLVVGSGIAGLGAAQKLCSHRAAPHLRVLEATASAGGRIRSERCFGGVVELGAHWIAGPSQDNPVFQLAAEFGLLGEKELSEENQLVDTGGHVALPSMIWSSSGTSVSLELMTEMARLFYGLIERTREFLNESETPMASVGEFLKKEISQQVASWTEDDEDTRKRKLAILNTFFNIECCVSGTHSMDLVALAPFGEYTVLPGLDCILAGGYQGLTDRILASLPKDTVAFDKPVKTIHWNGSFQEAAFPGETFPVLVECEDGARLPAHHVIVTVPLGFLKEHQDTFFEPPLPAKKAEAIKKLGFGTNNKIFLEFEEPFWEPDCQFIQVVWEDTSPLQDTALSLQDTWFKKLIGFLVQPSFESSHVLCGFIAGLESEFMETLSDEEVLLSLTQVLRRVTGNPQLPAAKSVRRSQWHSAPYTRGSYSYVAVGSTGDDLDLMAQPLPEDGTGTQLQVLFAGEATHRTFYSTTHGALLSGWREADRLVSLWDSQVEQSRPRL", "B2": "moaA (Staphylococcus aureus, UniProt P69848); chain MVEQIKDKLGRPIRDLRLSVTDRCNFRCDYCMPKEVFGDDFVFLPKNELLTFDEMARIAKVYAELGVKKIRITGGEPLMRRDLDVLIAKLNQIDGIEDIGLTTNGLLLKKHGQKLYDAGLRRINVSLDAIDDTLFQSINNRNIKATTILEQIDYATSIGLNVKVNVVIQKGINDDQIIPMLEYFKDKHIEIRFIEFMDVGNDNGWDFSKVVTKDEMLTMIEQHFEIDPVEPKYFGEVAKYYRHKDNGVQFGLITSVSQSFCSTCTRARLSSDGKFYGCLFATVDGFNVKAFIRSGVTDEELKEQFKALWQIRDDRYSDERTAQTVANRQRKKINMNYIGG", "B3": "MsrP (Escherichia coli, UniProt P76342); chain DLLSWFKGNDRPPAPAGKALEFSKPAAWQNNLPLTPADKVSGYNNFYEFGLDKADPAANAGSLKTDPWTLKISGEVAKPLTLDHDDLTRRFPLEERIYRMRCVEAWSMVVPWIGFPLHKLLALAEPTSNAKYVAFETIYAPEQMPGQQDRFIGGGLKYPYVEGLRLDEAMHPLTLMTVGVYGKALPPQNGAPVRLIVPWKYGFKGIKSIVSIKLTRERPPTTWNLAAPDEYGFYANVNPYVDHPRWSQATERFIGSGGILDVQRQPTLLFNGYAAQVASLYRGLDLRENF", "B4": "asnB E349D (Escherichia coli, UniProt P22106); chain CSIFGVFDIKTDAVELRKKALELSRLMRHRGPDWSGIYASDNAILAHERLSIVDVNAGAQPLYNQQKTHVLAVNGEIYNHQALRAEYGDRYQFQTGSDCEVILALYQEKGPEFLDDLQGMFAFALYDSEKDAYLIGRDHLGIIPLYMGYDEHGQLYVASEMKALVPVCRTIKEFPAGSYLWSQDGEIRSYYHRDWFDYDAVKDNVTDKNELRQALEDSVKSHLMSDVPYGVLLSGGLDSSIISAITKKYAARRVEDQERSEAWWPQLHSFAVGLPGSPDLKAAQEVANHLGTVHHEIHFTVQEGLDAIRDVIYHIETYDVTTIRASTPMYLMSRKIKAMGIKMVLSGDGSDEVFGGYLYFHKAPNAKELHEETVRKLLALHMYDCARANKAMSAWGVEARVPFLDKKFLDVAMRINPQDKMCGNGKMEKHILRECFEAYLPASVAWRQKEQFSDGVGYSWIDTLKEVAAQQVSDQQLETARFRFPYNTPTSKEAYLYREIFEELFPLPSAAECVPGGPSVACSSAKAIEWDEAFKKMDDPSGRAVGVHQSAYK", "B5": "cyc1 F96W (Streptomyces coelicolor, UniProt Q9K499); chain MHAFPHGTTATPTAIAVPPSLRLPVIEAAFPRQLHPYWPKLQETTRTWLLEKRLMPADKVEEYADGLCYTDLMAGYYLGAPDEVLQAIADYSAWFWVWDDRHDRDIVHGRAGAWRRLRGLLHTALDSPGDHLHHEDTLVAGFADSVRRLYAFLPATWNARFARHFHTVIEAYDREFHNRTRGIVPGVEEYLELRRLTFAHWIWTDLLEPSSGCELPDAVRKHPAYRRAALLSQEFAAWYNDLCSLPKEIAGDEVHNLGISLITHHSLTLEEAIGEVRRRVEECITEFLAVERDALRFADELADGTVRGKELSGAVRANVGNMRNWFSSVYWFHHESGRYMVDSWDDRSTPPYVNNEAAGEK"}
{"Molecule": "protein (Carthamus tinctorius, UniProt A0A7S8BII6)", "substrate": "O=c1c(O)c(-c2ccc(O)cc2)oc2cc(O)cc(O)c12", "pH": "pH 8", "temperature": "40 °C", "notes": "no added metal", "added": "UDP-glucose 0.8 mmol/L", "Km": "39.1 µM"}
{"Molecule": "protein fragment (Trypanosoma cruzi)", "substrate": "Nc1ncnc2c1ncn2[C@@H]1O[C@H](COP(=O)(O)OP(=O)(O)OP(=O)(O)O)[C@@H](O)[C@H]1O", "pH": "pH 6", "temperature": "room temperature", "added": "MnCl2 1 mM", "Km": "103 µM"}
{"Molecule": "protein (Candidatus Protochlamydia amoebophila, UniProt A0A2P9HA01)", "substrate": "Nc1nc2c(ncn2[C@H]2C[C@H](O)[C@@H](COP(=O)(O)OP(=O)(O)OP(=O)(O)O)O2)c(=O)[nH]1", "pH": "pH 7", "temperature": "30 °C", "notes": "transporter, labelled substrate, apparent, not purified", "Km": "121 µM"}
{"Molecule": "B1 (Paox H64A)", "substrate": "c1ccc(CNCCCCNCc2ccccc2)cc1", "pH": "pH 8.6", "temperature": "30 °C", "Km": "270 µM"}
{"Molecule": "B2 (moaA)", "substrate": "Nc1nc2c(ncn2[C@@H]2O[C@H](COP(=O)(O)OP(=O)(O)OP(=O)(O)O)[C@@H](O)[C@H]2O)c(=O)[nH]1", "pH": "pH 7.6", "temperature": "25 °C", "added": "SAM, dithionite, MgCl2 1 mM", "Km": "1.4 µM"}
{"Molecule": "B3 (MsrP)", "substrate": "C[S@@+]([O-])CC[C@H](N)C(=O)O", "pH": "pH 7", "temperature": "30 °C", "added": "benzyl viologen 0.4 mM", "Km": "25700 µM"}
{"Molecule": "B4 (asnB E349D)", "substrate": "NC(=O)CC[C@H](N)C(=O)O", "pH": "pH 8", "temperature": "37 °C", "notes": "100 mM NaCl, glutaminase site", "added": "MgCl2; no ATP", "Km": "2700 µM"}
{"Molecule": "B5 (cyc1 F96W)", "substrate": "CC(C)=CCC/C(C)=C/CC/C(C)=C/CO[P@@](=O)(O)OP(=O)(O)O", "pH": "pH 6.5", "temperature": "30 °C", "added": "MgCl2 10 mM", "Km": "0.31 µM"}
{"Molecule": "RALBP1 (Homo sapiens, UniProt Q15311)", "substrate": "Nc1ncnc2c1ncn2[C@@H]1O[C@H](COP(=O)(O)OP(=O)(O)OP(=O)(O)O)[C@@H](O)[C@H]1O", "pH": "pH 7.4", "temperature": "37 °C", "added": "14C-DOX 3.6 µM", "Km": "3500 µM"}
{"Molecule": "protein I23F/S203N/S29F (Manduca sexta, UniProt Q8I8Y1)", "substrate": "Oc1ccc(O)cc1", "pH": "pH 7", "Km": "53200 µM"}
{"note": "Excerpt of the above:"}
{"Molecule": "B2 (moaA)", "substrate": "Nc1nc2c(ncn2[C@@H]2O[C@H](COP(=O)(O)OP(=O)(O)OP(=O)(O)O)[C@@H](O)[C@H]2O)c(=O)[nH]1", "pH": "pH 7.6", "temperature": "25 °C", "added": "SAM, dithionite, MgCl2 1 mM", "Km": "1.4 µM"}
